Measurements of several laboratories.
Each numbered part is a random draw from the data of one study; scales do not carry over between parts. Substitutions count along the parent as printed. pIC50: −log10 of the molar value.
Chain of UniProt P11229 (whole entry, looked up): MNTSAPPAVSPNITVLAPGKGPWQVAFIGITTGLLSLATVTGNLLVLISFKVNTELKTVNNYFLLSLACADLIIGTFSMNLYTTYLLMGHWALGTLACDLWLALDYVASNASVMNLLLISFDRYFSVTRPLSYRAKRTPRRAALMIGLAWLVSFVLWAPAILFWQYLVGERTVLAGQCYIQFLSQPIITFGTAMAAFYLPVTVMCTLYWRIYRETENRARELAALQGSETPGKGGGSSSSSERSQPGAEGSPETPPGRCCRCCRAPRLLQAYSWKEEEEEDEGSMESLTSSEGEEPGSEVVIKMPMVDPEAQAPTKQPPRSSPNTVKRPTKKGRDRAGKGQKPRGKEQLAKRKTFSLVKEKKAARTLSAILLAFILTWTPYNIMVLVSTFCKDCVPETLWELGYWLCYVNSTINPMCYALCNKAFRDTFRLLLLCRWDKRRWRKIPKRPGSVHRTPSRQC
Chain of UniProt P21802 (whole entry, looked up): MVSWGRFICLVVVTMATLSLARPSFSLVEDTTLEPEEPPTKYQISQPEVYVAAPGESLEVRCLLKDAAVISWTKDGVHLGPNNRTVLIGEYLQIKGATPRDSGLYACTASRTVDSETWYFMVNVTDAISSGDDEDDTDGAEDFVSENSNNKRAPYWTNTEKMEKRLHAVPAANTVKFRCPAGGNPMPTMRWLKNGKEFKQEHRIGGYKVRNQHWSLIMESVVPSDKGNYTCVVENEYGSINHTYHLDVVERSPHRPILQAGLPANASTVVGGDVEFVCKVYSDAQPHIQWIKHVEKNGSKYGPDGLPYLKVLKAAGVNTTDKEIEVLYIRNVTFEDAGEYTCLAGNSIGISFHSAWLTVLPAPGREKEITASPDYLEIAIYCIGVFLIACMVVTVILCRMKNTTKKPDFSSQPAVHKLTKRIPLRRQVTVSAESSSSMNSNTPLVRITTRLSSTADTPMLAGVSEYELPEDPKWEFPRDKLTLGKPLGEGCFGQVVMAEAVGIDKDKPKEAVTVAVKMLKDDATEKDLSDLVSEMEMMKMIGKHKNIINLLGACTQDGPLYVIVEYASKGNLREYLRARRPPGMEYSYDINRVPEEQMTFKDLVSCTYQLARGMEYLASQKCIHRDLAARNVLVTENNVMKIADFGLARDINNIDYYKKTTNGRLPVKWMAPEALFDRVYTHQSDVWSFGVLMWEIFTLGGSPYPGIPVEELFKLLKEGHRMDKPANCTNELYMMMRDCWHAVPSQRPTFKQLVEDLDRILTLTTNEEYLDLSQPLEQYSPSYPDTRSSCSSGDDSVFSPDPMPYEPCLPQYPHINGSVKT
Chain of UniProt Q01959 (whole entry, looked up): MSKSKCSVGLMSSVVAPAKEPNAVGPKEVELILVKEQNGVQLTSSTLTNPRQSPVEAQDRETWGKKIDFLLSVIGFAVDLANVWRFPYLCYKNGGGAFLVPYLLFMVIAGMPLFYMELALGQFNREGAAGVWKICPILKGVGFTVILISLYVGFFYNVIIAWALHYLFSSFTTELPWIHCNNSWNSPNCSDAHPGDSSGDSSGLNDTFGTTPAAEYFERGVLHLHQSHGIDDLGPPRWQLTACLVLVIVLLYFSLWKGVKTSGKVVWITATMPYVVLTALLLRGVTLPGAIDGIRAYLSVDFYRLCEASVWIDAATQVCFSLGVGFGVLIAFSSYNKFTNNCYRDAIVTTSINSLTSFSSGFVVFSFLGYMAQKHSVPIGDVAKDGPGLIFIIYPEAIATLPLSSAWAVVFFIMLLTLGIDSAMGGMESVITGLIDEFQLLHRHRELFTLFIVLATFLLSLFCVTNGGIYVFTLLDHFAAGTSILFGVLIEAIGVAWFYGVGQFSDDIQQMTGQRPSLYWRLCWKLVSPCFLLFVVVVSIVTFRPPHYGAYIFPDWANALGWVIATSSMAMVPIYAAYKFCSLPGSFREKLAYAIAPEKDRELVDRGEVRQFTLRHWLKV
Chain of UniProt P52333 (whole entry, looked up): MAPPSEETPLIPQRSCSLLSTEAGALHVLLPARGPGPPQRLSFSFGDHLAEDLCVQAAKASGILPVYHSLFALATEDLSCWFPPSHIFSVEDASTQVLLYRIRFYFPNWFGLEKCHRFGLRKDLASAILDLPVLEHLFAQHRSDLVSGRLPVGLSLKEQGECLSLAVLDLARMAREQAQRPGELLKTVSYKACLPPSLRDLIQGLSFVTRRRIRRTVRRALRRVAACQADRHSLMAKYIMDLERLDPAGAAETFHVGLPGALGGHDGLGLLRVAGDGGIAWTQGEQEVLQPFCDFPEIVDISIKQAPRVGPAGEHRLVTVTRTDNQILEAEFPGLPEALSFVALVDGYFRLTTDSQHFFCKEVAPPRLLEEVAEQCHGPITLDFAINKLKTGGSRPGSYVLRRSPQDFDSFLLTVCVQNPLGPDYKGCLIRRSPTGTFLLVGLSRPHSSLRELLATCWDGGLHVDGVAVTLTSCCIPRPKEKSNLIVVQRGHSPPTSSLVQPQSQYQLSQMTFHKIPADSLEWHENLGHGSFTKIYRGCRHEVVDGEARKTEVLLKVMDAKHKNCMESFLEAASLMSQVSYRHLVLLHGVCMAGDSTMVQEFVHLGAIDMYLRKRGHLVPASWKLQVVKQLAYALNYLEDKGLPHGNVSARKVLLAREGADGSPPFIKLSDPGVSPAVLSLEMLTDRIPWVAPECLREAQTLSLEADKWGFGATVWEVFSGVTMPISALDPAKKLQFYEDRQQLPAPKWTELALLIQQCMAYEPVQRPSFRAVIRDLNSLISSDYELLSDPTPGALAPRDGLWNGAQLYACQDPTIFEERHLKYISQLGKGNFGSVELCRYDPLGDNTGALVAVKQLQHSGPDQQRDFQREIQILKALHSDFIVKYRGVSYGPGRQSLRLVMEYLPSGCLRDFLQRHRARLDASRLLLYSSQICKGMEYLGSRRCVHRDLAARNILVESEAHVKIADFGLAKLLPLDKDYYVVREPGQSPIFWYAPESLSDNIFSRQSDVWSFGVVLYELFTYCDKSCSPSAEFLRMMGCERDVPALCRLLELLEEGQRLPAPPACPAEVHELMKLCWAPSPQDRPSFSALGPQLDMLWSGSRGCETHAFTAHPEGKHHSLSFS
Chain of UniProt Q9UM73 (whole entry, looked up): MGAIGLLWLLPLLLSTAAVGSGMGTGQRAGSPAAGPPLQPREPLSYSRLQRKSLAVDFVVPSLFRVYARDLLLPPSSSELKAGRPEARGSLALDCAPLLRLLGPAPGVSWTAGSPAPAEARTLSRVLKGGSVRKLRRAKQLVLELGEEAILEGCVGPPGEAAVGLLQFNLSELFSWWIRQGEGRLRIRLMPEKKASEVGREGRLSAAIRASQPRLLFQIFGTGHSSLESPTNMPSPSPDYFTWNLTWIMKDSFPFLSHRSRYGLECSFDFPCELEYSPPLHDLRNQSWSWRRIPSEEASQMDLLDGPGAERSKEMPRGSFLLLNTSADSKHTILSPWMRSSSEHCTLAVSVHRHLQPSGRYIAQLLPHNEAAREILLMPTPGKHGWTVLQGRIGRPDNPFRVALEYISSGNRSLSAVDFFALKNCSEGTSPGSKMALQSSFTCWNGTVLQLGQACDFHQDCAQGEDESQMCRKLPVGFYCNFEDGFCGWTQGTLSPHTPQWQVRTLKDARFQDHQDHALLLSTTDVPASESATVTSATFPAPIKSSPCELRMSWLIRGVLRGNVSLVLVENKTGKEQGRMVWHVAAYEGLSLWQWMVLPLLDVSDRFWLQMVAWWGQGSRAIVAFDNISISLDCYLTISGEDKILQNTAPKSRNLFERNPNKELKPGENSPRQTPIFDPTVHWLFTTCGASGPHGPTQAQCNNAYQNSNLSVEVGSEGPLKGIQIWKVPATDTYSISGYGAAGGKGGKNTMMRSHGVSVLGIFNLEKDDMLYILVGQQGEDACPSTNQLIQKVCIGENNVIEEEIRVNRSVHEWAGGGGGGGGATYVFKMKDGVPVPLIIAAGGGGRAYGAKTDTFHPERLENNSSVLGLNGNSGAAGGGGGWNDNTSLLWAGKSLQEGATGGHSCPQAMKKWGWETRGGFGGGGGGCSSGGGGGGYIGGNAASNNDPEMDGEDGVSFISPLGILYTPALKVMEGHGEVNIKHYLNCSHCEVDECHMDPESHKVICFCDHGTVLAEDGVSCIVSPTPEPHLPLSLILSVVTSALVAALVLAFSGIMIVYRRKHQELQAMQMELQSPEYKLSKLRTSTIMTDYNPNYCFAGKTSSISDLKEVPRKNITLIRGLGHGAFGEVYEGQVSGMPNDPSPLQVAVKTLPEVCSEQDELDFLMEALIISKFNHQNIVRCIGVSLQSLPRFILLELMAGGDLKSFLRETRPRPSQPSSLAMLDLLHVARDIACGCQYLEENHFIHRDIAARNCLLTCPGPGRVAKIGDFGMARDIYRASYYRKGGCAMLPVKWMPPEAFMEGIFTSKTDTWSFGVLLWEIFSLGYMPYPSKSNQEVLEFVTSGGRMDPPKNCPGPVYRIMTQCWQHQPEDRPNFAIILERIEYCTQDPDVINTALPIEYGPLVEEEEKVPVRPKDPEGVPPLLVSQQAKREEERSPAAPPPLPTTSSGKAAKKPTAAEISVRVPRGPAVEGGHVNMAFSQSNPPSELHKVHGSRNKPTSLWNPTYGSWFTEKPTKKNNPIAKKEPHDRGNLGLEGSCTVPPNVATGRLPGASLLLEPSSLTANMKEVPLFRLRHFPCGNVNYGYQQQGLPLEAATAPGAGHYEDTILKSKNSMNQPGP

Set 1
Structure (SMILES): CNC(=O)c1ccc(-c2cnn3ccc(C(=O)N(C)c4ccc(Cl)c(C(=O)OC)c4)cc23)cc1
target | observed | action | pIC50
GRK1 (Homo sapiens, UniProt Q15835) | enzyme activity | inhibitor | < 4.52
FGFR2 (Homo sapiens, UniProt P21802) | enzyme activity | inhibitor | < 4.52
ALK (Homo sapiens, UniProt Q9UM73) | enzyme activity | inhibitor | < 4.52
JAK3 (Homo sapiens, UniProt P52333) | enzyme activity | inhibitor | < 4.52
CHRM1 (Homo sapiens, UniProt P11229) | cell-free assay |  | < 4.52
SLC6A3 (Homo sapiens, UniProt Q01959) | cell-free assay |  | < 4.52

Set 2
Target: vanadate, free oxyanion
Technique: microfluidic competitive inhibition
Sample: in vitro, cell-free expressed
Concentration: not given
Notes: derived from inhibition constants, unchanged parent 676 nM
Reading: lower = stronger binding
Starting sequence: PafA, mature enzyme, eGFP fusion (Elizabethkingia meningoseptica, UniProt Q9KJX5); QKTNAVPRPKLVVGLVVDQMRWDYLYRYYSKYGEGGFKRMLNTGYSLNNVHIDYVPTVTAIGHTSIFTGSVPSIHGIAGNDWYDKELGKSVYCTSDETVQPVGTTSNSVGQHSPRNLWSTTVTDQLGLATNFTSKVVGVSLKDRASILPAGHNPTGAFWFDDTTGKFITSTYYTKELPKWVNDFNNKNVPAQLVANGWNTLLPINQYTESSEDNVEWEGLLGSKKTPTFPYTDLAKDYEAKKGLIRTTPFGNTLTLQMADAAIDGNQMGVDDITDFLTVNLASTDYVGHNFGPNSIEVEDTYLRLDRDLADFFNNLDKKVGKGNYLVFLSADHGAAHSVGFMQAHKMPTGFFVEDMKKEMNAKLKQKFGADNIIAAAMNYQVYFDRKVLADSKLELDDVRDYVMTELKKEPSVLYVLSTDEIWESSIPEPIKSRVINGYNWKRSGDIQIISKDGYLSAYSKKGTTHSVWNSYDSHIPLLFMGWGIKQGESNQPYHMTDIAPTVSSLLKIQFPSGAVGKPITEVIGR
Change | oxyanion analog dissociation constant
H345V | 753 nM
M481G | 996 nM
K225G | 568 nM
V523A | 642 nM
V99G | 595 nM
V287G | 1.15 µM
V523G | 939 nM
K10G | 758 nM

Set 3
Target: CCNE2, cyclin fold, Cln2 fusion (human)
Technique: yeast growth competition, sequencing
Sample: yeast
Notes: strong parent motif
Relative to: not given
Reading: higher = stronger binding
Starting sequence: viral docking peptide; TSVRRALFTGGSD
Change | normalised enrichment score
TSVRRALDTGGSD [F8D] | 0.249
TFVRRALFTGGSD [S2F] | 2.39
TSVRRALFHGGSD [T9H] | 2.54
TVVRRALFTGGSD [S2V] | 1.64
TSKRRALFTGGSD [V3K] | 0.633
TSVRRALFTYGSD [G10Y] | 3.03
TSVRQALFTGGSD [R5Q] | 0.275
TSVRMALFTGGSD [R5M] | 0.271

Other studies, line by line
SMILES | target | observed | technique | concentration | measurement | value
Cn1cncc1[C@](O)(COc1ccc(C#N)cc1-c1ccc(OC(F)(F)F)cc1)c1ccc(C#N)cc1 | Calcium-dependent protein kinase 1 (CDPK1, Plasmodium falciparum, UniProt P62344) | cell-free assay | competition with immobilised ligand | 1 µM | remaining binding | 88%

Excerpt of the above (set 3):
Change | normalised enrichment score
TSVRRALDTGGSD [F8D] | 0.249
TFVRRALFTGGSD [S2F] | 2.39
TSVRRALFHGGSD [T9H] | 2.54
